Experimental data of several laboratories.
± marks the error that the study gave.
folP: Dihydropteroate synthase (folP, Bacteria, UniProt P0AC13)
Chain of UniProt P0AC13 (whole entry, looked up): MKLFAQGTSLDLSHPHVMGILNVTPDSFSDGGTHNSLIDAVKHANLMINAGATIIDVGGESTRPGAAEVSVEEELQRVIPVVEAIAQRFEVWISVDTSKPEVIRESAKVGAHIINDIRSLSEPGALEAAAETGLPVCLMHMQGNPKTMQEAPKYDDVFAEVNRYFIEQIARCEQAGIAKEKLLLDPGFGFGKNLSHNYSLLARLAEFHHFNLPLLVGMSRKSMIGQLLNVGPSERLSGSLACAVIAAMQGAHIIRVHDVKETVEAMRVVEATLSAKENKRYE
T1: RNA aptamer; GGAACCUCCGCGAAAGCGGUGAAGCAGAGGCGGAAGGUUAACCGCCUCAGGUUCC
Chain of UniProt P48735 (whole entry, unmodified, looked up): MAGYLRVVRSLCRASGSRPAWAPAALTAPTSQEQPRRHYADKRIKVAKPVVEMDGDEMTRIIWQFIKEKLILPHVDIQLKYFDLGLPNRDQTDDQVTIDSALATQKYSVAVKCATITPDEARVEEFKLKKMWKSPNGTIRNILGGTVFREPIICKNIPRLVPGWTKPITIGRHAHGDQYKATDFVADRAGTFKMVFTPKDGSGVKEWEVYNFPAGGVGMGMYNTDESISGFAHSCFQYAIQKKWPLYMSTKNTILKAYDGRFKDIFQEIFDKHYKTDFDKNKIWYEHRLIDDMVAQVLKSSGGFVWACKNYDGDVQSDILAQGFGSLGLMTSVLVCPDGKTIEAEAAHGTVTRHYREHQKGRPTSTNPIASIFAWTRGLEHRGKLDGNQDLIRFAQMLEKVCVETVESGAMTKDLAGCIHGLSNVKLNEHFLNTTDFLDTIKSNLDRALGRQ
Chain of UniProt Q9HB29 (whole entry, looked up): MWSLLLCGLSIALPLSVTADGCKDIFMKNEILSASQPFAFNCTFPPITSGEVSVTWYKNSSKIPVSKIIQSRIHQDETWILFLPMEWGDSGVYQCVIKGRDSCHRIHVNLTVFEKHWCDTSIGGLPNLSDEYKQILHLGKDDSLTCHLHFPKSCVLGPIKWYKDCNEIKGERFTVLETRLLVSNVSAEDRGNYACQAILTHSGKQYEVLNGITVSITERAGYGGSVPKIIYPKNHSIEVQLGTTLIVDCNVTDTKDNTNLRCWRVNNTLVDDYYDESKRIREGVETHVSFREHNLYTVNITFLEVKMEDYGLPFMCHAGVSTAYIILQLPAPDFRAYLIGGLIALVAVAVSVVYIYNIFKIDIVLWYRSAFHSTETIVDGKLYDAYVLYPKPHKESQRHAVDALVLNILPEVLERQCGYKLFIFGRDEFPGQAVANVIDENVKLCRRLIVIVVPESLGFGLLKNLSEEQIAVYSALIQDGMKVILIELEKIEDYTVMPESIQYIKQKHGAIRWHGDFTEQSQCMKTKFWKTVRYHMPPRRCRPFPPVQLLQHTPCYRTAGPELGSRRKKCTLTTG
Chain of UniProt P35222 (141-305, unmodified, looked up): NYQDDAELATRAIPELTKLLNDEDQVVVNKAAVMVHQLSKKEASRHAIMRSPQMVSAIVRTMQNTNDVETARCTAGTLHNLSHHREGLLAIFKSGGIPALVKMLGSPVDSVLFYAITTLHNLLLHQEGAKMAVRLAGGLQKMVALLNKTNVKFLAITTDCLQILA
Chain of UniProt O94762 (whole entry, looked up): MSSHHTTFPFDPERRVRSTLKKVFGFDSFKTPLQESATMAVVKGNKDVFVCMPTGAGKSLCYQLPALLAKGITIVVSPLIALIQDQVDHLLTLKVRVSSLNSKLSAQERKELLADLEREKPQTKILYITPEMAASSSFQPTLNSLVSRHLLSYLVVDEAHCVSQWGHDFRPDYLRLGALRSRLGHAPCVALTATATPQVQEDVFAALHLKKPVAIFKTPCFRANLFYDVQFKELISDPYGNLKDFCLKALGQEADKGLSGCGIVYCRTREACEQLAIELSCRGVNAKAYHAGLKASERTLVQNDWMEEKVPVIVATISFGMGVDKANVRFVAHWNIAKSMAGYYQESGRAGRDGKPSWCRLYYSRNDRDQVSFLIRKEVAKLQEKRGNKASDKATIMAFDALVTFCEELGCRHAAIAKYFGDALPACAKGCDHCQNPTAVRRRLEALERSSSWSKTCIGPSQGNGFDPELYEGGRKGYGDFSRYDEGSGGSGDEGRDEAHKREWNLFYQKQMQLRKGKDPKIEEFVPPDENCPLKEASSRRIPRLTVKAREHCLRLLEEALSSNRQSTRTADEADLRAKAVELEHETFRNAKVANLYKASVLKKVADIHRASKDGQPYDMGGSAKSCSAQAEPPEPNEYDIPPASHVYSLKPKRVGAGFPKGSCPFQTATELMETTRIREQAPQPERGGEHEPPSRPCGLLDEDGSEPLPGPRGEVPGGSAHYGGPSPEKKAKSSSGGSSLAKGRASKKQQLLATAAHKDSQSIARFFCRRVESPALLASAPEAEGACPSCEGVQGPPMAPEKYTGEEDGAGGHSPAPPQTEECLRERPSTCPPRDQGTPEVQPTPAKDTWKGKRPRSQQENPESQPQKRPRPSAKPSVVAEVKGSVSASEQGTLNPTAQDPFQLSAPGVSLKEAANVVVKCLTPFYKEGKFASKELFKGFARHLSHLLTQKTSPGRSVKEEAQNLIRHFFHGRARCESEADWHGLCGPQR

`CCc1occc(=O)c1[O-].[Cl-].[W+4].c1cc[cH-]c1.c1cc[cH-]c1`: “Stern-Volmer quenching constant” 16400 L/mol (Albumin (ALB, Homo sapiens, UniProt P02768); fluorescence quenching; 310 K).
The remaining activity of `COc1ccccc1-c1ccncc1C(=O)Nc1nnc(OCc2ccc(Cl)cc2)s1` is reported as 101% (RECQL5 (Homo sapiens, UniProt O94762); ATPase activity, ADP-Glo; 0.008 µM, 1 h).
The remaining activity of `CC(C)[C@@H]1NC(=O)[C@H](Cc2ccccc2)NC(=O)CSC[C@@H](C(N)=O)NC(=O)[C@H](CCC(=O)O)NC(=O)[C@H](CO)NC(=O)[C@H](Cc2c[nH]c3cccc(Cl)c23)NC(=O)[C@H](C2CCCCC2)NC(=O)[C@H](C(C)C)NC(=O)[C@H](Cc2ccc(O)cc2)NC(=O)[C@H](CC(=O)O)NC(=O)[C@H](Cc2c[nH]c3ccccc23)NC(=O)[C@H](Cc2ccc(N)nc2)NC(=O)[C@H](Cc2c[nH]c3ccc(Cl)cc23)NC(=O)[C@H](CCC(=O)O)NC1=O` is reported as 36.7% (Interleukin-1 receptor-like 2 (IL1RL2, Homo sapiens, UniProt Q9HB29); reporter gene (SEAP), inhibitor, HEK-Blue IL-36R reporter; HEK-Blue IL-36R cells; 100 µM, 6 h, added: IL-36β 100 ng/mL).
For `CC[C@H](C)[C@H](NC(=O)[C@H](CCC(=O)O)NC(=O)[C@H](CCC(=O)O)NC(=O)[C@H](Cc1ccccc1)NC(=O)[C@H](CCCCN)NC(=O)[C@@H]1CCCN1C(=O)[C@H](Cc1c[nH]cn1)NC(=O)[C@H](CCCCN)NC(=O)[C@H](CO)NC(=O)[C@H](CC(C)C)NC(=O)[C@H](Cc1c[nH]cn1)NC(C)=O)C(=O)N[C@@H](CC(C)C)C(=O)N[C@H](C(=O)N[C@@H](CCCNC(=N)N)C(=O)N[C@@H](CC(C)C)C(=O)N[C@@H](CCCNC(=N)N)C(=O)N[C@@H](CC(C)C)C(=O)N[C@@H](CCC(N)=O)C(N)=O)[C@@H](C)O`, the binding stoichiometry was 1.02 (Calmodulin-1, C-lobe (CALM1, Homo sapiens, UniProt P0DP23); ITC; concentration not given, C-lobe, added: 1 mM CaCl2).
The ΔS of `CC[C@H](C)[C@H](NC(=O)[C@H](CC(=O)O)NC(=O)[C@H](CCCNC(=N)N)NC(=O)[C@H](CC(C)C)NC(=O)[C@@H](NC(=O)[C@H](CCC(N)=O)NC(=O)[C@H](CC(C)C)NC(=O)[C@H](CO)NC(=O)[C@H](CCCNC(=N)N)NC(=O)[C@H](CCC(=O)O)NC(=O)[C@H](CCCNC(=N)N)NC(=O)[C@H](Cc1c[nH]cn1)NC(=O)[C@H](CCC(=O)O)NC(=O)[C@H](CC(C)C)NC(=O)[C@H](CCC(N)=O)NC(=O)[C@H](CCC(=O)O)NC(=O)[C@H](CCC(N)=O)NC(=O)[C@H](CO)NC(=O)[C@@H](N)CC(C)C)[C@@H](C)O)C(=O)N[C@@H](CCC(N)=O)C(=O)N[C@@H](CCCNC(=N)N)C(=O)N[C@@H](CCSC)C(=O)O` is reported as 11.4 cal/mol/K (Catenin beta-1, residues 141-305 (CTNNB1, Homo sapiens, UniProt P35222); ITC; 25 °C).
`CC(=O)NCCCCCNc1nc(NCCCCCCN(C)C)c2cc(NC(=O)/C=C/CN(C)C)ccc2n1` gave a remaining signal of 109% (SETDB1 (Homo sapiens, UniProt Q15047); cell-free assay, inhibitor, FP; 31.25 nM).
Under “melting temperature shift”, `Cn1nnnc1NCc1nn(C)c2nc(N)[nH]c(=O)c2c1=O` is recorded as 12 °C (folP; CETSA HiBiT; Escherichia coli, cell lysate; concentration not given; reference: DMSO).
`C[C@@H](Nc1nc(N[C@H](C)C(F)(F)F)nc(-c2cccc(Cl)n2)n1)C(F)(F)F` gave a maximum inhibition of 81.8 ± 1% (Isocitrate dehydrogenase [NADP], mitochondrial, heterodimer with wild-type (IDH2, Homo sapiens, UniProt P48735, R140Q); reverse reaction; 1 h preincubation, mutant).
Under “melting temperature shift”, `CCOC(=O)Cc1n[nH]c2nc(N)[nH]c(=O)c2c1=O` is recorded as 2.56 °C (folP; CETSA HiBiT; Escherichia coli, whole cells; concentration not given; reference: DMSO).
The Kd of `CN(C)c1ccc2c(-c3ccccc3C(=O)[N-]S(=O)(=O)N(C)C)c3ccc(=[N+](C)C)cc-3oc2c1` is reported as over 2300 nM (T1, RNA aptamer; fluorescence titration, quadratic fit; room temperature, K+ 125 mM, lower bound printed, added: Mg2+ 1 mM).

Some of these lines once more:
`CC(=O)NCCCCCNc1nc(NCCCCCCN(C)C)c2cc(NC(=O)/C=C/CN(C)C)ccc2n1` gave a remaining signal of 109% (SETDB1 (Homo sapiens, UniProt Q15047); cell-free assay, inhibitor, FP; 31.25 nM).
